{"data": "Results from different studies", "note": "Every numbered part comes from another study and shows a few of its results, in no order. Several values in a cell are separate wells, animals, samples, runs or records.", "UniProt P42680, sequence (whole entry, looked up)": "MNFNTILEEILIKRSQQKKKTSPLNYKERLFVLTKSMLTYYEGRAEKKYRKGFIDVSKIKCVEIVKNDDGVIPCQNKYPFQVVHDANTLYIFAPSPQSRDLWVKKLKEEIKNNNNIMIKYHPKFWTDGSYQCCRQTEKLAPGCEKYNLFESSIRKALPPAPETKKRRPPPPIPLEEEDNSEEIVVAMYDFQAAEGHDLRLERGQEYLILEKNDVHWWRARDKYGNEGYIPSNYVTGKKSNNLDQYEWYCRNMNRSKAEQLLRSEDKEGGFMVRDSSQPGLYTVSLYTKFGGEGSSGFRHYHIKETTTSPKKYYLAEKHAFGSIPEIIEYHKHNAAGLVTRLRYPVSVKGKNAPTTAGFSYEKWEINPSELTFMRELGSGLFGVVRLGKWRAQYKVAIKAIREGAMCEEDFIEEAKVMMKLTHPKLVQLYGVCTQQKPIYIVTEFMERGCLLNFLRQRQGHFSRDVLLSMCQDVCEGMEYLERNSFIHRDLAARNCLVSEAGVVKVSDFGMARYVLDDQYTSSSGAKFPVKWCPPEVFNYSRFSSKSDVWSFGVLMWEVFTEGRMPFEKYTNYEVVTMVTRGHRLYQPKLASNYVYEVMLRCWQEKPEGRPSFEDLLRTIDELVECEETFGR", "UniProt Q9C098, sequence (whole entry, looked up)": "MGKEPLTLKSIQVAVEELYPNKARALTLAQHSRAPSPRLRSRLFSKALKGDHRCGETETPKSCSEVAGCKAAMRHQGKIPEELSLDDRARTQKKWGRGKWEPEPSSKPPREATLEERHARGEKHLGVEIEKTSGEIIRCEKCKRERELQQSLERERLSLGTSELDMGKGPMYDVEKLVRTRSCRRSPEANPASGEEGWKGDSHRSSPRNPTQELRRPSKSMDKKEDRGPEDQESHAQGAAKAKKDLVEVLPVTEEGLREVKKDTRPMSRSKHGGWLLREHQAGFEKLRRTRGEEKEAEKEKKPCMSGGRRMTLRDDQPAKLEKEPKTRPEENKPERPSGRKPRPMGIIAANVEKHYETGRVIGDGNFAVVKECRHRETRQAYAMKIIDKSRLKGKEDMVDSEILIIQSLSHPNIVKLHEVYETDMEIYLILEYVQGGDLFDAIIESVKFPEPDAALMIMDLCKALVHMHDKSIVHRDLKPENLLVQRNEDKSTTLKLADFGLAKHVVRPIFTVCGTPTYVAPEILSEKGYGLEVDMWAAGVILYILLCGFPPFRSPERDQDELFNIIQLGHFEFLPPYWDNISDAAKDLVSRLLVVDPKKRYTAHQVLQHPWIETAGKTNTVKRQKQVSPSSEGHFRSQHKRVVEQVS", "UniProt Q05513, sequence (whole entry, looked up)": "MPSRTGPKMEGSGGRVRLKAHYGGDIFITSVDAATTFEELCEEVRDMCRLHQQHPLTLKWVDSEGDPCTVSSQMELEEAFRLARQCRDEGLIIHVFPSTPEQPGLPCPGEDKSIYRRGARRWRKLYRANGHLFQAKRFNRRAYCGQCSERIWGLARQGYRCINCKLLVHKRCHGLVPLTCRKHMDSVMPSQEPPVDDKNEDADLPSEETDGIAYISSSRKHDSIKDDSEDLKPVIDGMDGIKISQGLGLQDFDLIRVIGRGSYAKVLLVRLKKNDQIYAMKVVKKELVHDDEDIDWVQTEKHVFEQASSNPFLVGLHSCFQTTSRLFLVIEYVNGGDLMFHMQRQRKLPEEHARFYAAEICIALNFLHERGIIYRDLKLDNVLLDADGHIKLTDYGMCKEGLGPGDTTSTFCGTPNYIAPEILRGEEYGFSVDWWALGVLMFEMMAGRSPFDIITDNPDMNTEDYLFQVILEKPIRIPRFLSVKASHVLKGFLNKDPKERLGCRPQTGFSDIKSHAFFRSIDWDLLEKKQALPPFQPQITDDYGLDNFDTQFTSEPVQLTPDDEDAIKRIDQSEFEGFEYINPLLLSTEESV", "UniProt Q9H0K1, sequence (whole entry, looked up)": "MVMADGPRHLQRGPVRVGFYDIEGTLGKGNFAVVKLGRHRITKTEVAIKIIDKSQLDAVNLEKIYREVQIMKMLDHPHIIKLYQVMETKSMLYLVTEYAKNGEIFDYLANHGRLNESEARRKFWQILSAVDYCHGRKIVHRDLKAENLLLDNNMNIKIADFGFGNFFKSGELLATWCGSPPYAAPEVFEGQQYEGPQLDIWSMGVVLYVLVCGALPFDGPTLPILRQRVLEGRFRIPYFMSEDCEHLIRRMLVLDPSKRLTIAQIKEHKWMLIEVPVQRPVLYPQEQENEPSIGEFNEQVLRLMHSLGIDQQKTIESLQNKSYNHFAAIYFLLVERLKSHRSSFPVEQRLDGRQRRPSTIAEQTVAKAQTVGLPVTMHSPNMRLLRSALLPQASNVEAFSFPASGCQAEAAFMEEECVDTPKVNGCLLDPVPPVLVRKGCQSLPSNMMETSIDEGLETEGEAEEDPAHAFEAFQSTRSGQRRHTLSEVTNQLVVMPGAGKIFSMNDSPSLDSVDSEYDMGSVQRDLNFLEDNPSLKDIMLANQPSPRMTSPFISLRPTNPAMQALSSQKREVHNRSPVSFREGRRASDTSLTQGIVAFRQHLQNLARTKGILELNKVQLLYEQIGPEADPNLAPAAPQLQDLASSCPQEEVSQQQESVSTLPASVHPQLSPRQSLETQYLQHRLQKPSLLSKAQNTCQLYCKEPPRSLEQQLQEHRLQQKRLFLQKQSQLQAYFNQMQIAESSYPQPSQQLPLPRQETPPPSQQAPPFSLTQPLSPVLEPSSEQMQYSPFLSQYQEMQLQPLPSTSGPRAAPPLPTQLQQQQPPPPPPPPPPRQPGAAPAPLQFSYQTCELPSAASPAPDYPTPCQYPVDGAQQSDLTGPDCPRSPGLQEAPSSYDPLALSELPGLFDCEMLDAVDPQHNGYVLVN", "UniProt P29320, sequence (whole entry, looked up)": "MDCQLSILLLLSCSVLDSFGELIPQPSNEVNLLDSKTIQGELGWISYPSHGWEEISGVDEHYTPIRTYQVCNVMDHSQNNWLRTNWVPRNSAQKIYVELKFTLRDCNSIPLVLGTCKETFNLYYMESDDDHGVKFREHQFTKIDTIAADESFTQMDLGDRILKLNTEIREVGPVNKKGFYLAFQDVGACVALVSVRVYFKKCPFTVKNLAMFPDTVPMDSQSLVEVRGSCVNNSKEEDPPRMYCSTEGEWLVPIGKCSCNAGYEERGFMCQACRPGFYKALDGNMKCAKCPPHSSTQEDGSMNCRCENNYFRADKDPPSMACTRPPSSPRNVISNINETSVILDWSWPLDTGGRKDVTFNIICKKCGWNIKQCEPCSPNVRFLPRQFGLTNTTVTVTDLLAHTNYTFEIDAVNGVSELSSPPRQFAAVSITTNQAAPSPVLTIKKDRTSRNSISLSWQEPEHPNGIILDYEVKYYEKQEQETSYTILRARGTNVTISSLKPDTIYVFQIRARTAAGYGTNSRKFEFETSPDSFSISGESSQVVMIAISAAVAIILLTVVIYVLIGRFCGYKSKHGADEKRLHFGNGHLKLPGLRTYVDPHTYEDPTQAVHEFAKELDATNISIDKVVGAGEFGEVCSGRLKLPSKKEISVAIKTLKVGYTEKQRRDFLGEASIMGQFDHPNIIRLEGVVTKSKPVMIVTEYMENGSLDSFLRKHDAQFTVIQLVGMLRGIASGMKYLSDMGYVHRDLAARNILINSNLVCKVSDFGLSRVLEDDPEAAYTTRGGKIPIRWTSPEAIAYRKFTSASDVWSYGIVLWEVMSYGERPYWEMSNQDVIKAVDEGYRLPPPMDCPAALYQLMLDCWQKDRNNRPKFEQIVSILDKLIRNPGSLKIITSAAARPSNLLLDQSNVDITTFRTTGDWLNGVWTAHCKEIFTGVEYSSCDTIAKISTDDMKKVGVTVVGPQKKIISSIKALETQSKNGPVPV"}
{"data": "Study 1", "Compound": "CN1CCN(C(=O)c2ccc(NC(=O)Nc3ccc(N(C)c4ccnc(Nc5ccc(CS(C)(=O)=O)cc5)n4)cc3)cc2)CC1", "observed": "binding", "concentration": "1 µM"}
{"target": "DCLK3 (Homo sapiens, UniProt Q9C098)", "technique": "competition with immobilised ligand", "remaining binding": "100%"}
{"target": "TEC (Homo sapiens, UniProt P42680)", "technique": "competition with immobilised ligand", "remaining binding": "100%"}
{"target": "PLK3 (Homo sapiens, UniProt Q9H4B4)", "remaining binding": "100%"}
{"target": "EPHA3 (Homo sapiens, UniProt P29320)", "technique": "competition with immobilised ligand", "remaining binding": "79%"}
{"target": "PRKG1 (Homo sapiens, UniProt Q13976)", "remaining binding": "100%"}
{"target": "STK36 (Homo sapiens, UniProt Q9NRP7)", "technique": "competition with immobilised ligand", "remaining binding": "37%"}
{"data": "Study 2", "SMILES": "O=c1cc(N2CCOCC2)oc2c1ccc1ccccc12", "observed": "enzyme activity", "action": "inhibitor", "concentration": "0.5 µM", "baseline": "control"}
{"target": "PRKCZ (Homo sapiens, UniProt Q05513)", "remaining activity [%]": 106}
{"target": "CLK1 (Homo sapiens, UniProt P49759)", "remaining activity [%]": 98.3}
{"target": "TEC (Homo sapiens, UniProt P42680)", "remaining activity [%]": 150}
{"target": "SGK2 (Homo sapiens, UniProt Q9HBY8)", "remaining activity [%]": 102}
{"target": "SIK2 (Homo sapiens, UniProt Q9H0K1)", "remaining activity [%]": 126}
{"target": "ERBB2 (Homo sapiens, UniProt P04626)", "remaining activity [%]": 105}
{"target": "FES (Homo sapiens, UniProt P07332)", "remaining activity [%]": 100}
{"target": "FLT1 (Homo sapiens, UniProt P17948)", "remaining activity [%]": 95.5}
{"target": "MELK (Homo sapiens, UniProt Q14680)", "remaining activity [%]": 103}
{"target": "YES1 (Homo sapiens, UniProt P07947)", "remaining activity [%]": 98.7}
{"target": "PAK4 (Homo sapiens, UniProt O96013)", "remaining activity [%]": 108}
{"target": "MAP3K20 (Homo sapiens, UniProt Q9NYL2)", "remaining activity [%]": 98}
{"target": "JAK1 (Homo sapiens, UniProt P23458)", "remaining activity [%]": 104}
{"target": "RPS6KA3 (Homo sapiens, UniProt P51812)", "remaining activity [%]": 104}
{"target": "Cyclin-dependent kinase 5, with p35 (CDK5, Homo sapiens, UniProt Q00535)", "remaining activity [%]": 96.7}
{"target": "DYRK1A (Homo sapiens, UniProt Q13627)", "remaining activity [%]": 79}
{"target": "BRSK2 (Homo sapiens, UniProt Q8IWQ3)", "remaining activity [%]": 92.6}
{"target": "JAK2 (Homo sapiens, UniProt O60674)", "remaining activity [%]": 94.9}
{"target": "MARK1 (Homo sapiens, UniProt Q9P0L2)", "remaining activity [%]": 99.5}
{"data": "Study 3", "cell line": "HaCaT", "concentration": "100 µM", "time": "18 h"}
{"Structure (SMILES)": "O=C1CN(/N=C/c2ccc([N+](=O)[O-])o2)C(=O)N1", "viability": "70.6%"}
{"Structure (SMILES)": "O=C(c1ccccc1)c1ccc2n1CCC2C(=O)O (stereo not drawn)", "viability": "41.1%"}
{"Structure (SMILES)": "CNCc1cc(-c2ccccc2F)n(S(=O)(=O)c2cccnc2)c1", "viability": "99.9%"}
{"Structure (SMILES)": "CNC1(C)C2CCC(C2)C1(C)C (stereo not drawn)", "viability": "120%"}
{"Structure (SMILES)": "Cc1c(Nc2ncccc2C(=O)O)cccc1C(F)(F)F", "viability": "84.6%"}
{"Structure (SMILES)": "O=C(Nc1ccc([N+](=O)[O-])cc1Cl)c1cc(Cl)ccc1O", "viability": "62.1%"}
{"data": "Study 4", "sample": "hydrocarbon/water"}
{"SMILES": "CC(C)CC1NC(=O)CN(CC2CCOCC2)C(=O)C2CCCN2C(=O)C(CC(C)C)NC(=O)C(C)N(C)C(=O)C(CC(C)C)NC(=O)CN(CCCOC(C)C)C(=O)C2CCCN2C(=O)C(Cc2ccccc2)NC(=O)C(C)N(C)C1=O (stereo not drawn)", "logD": 2.39}
{"SMILES": "CCN1CC(=O)N[C@@H](CC(C)C)C(=O)N2CCC[C@@H]2C(=O)N(C)[C@@H](C)C(=O)N[C@@H](CC2CCCCC2)C(=O)N(C)[C@@H](C)C(=O)N[C@@H](CC(C)C)C(=O)N(C)Cc2cn(nn2)CC(=O)N[C@@H](CC(C)C)C1=O", "logD": 0.565}
{"SMILES": "CCOC(=O)[C@@H]1CSCC(=O)N[C@H](CC)C(=O)N(C)[C@@H](C)C(=O)N[C@H](CC(C)C)C(=O)N2CCC[C@@H]2C(=O)N(CC(C)C)CC(=O)N[C@H](CC(C)C)C(=O)N(C)[C@H](C)C(=O)N[C@@H](CC(C)C)C(=O)N1C", "logD": 1.46}
{"SMILES": "CCCN1CC(=O)N[C@@H](CC(C)C)C(=O)N2CCC[C@@H]2C(=O)N(C)[C@@H](C)C(=O)N[C@@H](CC2CCCCC2)C(=O)N(C)[C@@H](C)C(=O)N[C@@H](CC(C)C)C(=O)N(C)Cc2cn(nn2)CC(=O)N[C@@H](CC(C)C)C1=O", "logD": 1.01}
{"data": "Study 5", "target": "Diamine acetyltransferase 1 (Homo sapiens, UniProt P21673)", "action": "inhibitor", "concentration": "10 µM", "baseline": "control", "Construct (P21673 1-171)": "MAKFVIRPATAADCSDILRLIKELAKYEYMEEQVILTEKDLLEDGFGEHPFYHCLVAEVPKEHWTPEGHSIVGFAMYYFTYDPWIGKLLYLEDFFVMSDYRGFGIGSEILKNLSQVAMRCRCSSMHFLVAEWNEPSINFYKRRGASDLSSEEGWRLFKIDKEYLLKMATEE"}
{"Structure (SMILES)": "CC1(C)C=Cc2c(ccc3c2OC[C@@H](c2ccc(O)cc2O)C3)O1", "remaining activity [%]": 84.9}
{"Structure (SMILES)": "CCOC(=O)CCC(=O)OCC", "remaining activity [%]": 86.4}
{"Structure (SMILES)": "Cc1c(C)c2c(c(C)c1O)CC[C@@](C)(CCC[C@H](C)CCC[C@H](C)CCCC(C)C)O2", "remaining activity [%]": 99.1}
{"Structure (SMILES)": "CCOC(=O)/C=C/c1ccccc1", "remaining activity [%]": 98.7}
{"Structure (SMILES)": "COc1ccc(-c2cc(=O)c3c(O)c(OC)c(OC)c(OC)c3o2)cc1OC", "remaining activity [%]": 85.3}
{"data": "Further values, each from its own experiment"}
{"Structure (SMILES)": "O=C(NS(=O)(=O)c1ccc(NCC2CCOCC2)c([N+](=O)[O-])c1)c1ccc(N2CCN(Cc3ccc(C(F)(F)F)cc3-c3ccc(Cl)cc3)CC2)cc1Oc1cnc2[nH]ccc2c1", "tested on": "HTR5A (Homo sapiens, UniProt P47898)", "observed": "ligand displacement", "concentration": "10 µM", "endpoint": "inhibition", "value": "-12.5%"}
{"Structure (SMILES)": "CN(C)C(=O)/C(C#N)=C/c1ccc(-c2nc3cnc4[nH]ccc4c3n2C2CCCCC2)o1", "tested on": "normal-adjacent epithelium patient-derived organoids sample G", "technique": "CellTiter-Glo", "concentration": "0.1 µM", "baseline": "DMSO", "endpoint": "viability", "value": "117% and 135%"}
{"note": "A few entries again (study 2):"}
{"target": "TEC (Homo sapiens, UniProt P42680)", "remaining activity [%]": 150}
{"target": "SGK2 (Homo sapiens, UniProt Q9HBY8)", "remaining activity [%]": 102}
{"target": "SIK2 (Homo sapiens, UniProt Q9H0K1)", "remaining activity [%]": 126}
{"target": "ERBB2 (Homo sapiens, UniProt P04626)", "remaining activity [%]": 105}
{"target": "FES (Homo sapiens, UniProt P07332)", "remaining activity [%]": 100}
